Measurements from different studies.
Each numbered part is a random draw from the data of one study; scales do not carry over between parts. Positions count from the first letter of the parent shown.
Sequence of UniProt P27361 (whole entry, looked up): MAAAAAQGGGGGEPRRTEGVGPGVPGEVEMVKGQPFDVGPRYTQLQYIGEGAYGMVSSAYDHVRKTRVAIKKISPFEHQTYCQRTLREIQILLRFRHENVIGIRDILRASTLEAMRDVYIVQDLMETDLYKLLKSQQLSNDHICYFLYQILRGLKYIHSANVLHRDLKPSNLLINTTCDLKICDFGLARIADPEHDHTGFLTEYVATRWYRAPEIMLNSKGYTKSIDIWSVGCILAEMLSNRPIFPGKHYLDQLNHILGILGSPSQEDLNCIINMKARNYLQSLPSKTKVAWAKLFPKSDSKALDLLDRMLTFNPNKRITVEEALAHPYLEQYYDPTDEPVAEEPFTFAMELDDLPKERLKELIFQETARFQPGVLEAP
Sequence of UniProt Q9HC98 (whole entry, looked up): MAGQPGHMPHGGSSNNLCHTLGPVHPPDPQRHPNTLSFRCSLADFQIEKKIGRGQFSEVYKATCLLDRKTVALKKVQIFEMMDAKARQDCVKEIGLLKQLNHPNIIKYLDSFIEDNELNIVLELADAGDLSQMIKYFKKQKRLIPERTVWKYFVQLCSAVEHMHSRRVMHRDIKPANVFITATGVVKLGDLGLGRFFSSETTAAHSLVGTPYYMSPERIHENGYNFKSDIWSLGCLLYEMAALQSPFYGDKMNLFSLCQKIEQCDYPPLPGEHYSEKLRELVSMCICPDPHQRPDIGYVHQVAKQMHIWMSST
Sequence of UniProt Q9UL54 (whole entry, looked up): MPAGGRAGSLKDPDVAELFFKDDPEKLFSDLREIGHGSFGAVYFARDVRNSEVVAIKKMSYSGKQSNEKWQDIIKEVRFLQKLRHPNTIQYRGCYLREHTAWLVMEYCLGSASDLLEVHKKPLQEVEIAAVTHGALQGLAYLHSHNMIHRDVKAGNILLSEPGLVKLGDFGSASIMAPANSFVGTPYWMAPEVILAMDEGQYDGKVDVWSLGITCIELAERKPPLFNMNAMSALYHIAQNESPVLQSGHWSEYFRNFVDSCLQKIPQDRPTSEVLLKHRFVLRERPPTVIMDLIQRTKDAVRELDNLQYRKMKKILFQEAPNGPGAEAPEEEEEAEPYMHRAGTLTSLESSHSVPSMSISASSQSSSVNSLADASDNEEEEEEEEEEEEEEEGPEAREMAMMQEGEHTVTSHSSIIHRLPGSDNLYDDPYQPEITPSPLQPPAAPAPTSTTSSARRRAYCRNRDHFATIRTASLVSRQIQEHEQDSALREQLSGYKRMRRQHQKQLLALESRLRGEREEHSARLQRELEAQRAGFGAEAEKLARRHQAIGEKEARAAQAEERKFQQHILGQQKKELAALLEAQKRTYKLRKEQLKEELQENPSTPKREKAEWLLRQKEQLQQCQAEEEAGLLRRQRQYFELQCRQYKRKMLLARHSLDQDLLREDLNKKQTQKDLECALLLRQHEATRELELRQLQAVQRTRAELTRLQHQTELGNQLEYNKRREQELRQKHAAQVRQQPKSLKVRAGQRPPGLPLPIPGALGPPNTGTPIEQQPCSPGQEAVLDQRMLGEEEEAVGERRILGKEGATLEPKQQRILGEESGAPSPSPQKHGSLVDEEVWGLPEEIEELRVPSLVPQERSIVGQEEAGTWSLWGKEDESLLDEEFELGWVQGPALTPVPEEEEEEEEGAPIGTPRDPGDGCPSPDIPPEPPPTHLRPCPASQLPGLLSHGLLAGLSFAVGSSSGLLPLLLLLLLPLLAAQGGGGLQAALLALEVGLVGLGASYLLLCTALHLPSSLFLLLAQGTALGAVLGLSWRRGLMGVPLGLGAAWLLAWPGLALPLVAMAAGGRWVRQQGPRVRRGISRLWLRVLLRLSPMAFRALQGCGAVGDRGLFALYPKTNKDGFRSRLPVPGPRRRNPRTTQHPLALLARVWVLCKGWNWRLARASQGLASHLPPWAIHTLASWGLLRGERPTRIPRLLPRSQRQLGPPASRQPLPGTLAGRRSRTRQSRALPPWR
Sequence of UniProt P78368 (whole entry, looked up): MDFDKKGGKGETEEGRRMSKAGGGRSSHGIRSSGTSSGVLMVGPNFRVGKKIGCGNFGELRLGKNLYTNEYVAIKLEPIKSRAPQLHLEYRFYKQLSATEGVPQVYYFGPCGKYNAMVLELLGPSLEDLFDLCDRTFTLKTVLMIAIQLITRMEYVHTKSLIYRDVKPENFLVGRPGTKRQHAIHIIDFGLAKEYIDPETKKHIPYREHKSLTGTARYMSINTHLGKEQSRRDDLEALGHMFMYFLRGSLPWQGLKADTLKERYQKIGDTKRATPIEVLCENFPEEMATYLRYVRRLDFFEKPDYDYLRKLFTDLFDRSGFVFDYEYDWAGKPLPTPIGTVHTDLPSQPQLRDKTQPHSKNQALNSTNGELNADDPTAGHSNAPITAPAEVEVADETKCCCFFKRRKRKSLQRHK
Sequence of UniProt P30291 (whole entry, looked up): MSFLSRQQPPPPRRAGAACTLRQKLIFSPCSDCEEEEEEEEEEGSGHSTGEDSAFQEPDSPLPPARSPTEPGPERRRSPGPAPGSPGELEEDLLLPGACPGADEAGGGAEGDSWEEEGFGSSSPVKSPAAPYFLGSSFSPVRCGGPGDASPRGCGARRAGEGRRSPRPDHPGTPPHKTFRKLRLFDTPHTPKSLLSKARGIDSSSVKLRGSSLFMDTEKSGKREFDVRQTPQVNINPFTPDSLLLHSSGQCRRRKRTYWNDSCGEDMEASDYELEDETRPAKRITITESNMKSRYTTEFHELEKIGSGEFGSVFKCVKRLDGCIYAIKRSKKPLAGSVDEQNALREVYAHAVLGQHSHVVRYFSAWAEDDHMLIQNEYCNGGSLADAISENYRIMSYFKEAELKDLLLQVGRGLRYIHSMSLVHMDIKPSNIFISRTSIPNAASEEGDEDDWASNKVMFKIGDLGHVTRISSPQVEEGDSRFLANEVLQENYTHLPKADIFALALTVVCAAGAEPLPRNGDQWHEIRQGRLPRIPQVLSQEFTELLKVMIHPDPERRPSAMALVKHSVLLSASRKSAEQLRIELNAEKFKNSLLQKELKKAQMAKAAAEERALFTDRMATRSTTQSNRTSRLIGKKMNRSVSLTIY
Sequence of UniProt P10398 (whole entry, looked up): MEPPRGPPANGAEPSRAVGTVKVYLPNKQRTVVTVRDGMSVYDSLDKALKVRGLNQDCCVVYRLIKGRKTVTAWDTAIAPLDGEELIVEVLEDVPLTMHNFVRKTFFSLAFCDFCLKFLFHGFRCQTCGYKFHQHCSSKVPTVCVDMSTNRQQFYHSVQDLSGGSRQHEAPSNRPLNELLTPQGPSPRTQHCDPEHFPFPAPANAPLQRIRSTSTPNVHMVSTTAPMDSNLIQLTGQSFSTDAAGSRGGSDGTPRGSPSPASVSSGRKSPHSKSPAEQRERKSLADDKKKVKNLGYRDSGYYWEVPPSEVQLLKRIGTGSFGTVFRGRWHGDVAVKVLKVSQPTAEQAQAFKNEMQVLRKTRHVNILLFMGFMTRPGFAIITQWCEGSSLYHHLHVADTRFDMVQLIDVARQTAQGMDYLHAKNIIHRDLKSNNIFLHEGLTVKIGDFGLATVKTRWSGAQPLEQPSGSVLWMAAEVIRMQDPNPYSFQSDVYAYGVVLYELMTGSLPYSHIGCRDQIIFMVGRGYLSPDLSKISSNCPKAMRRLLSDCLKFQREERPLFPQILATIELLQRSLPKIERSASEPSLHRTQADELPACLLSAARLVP
Sequence of UniProt P49841 (whole entry, looked up): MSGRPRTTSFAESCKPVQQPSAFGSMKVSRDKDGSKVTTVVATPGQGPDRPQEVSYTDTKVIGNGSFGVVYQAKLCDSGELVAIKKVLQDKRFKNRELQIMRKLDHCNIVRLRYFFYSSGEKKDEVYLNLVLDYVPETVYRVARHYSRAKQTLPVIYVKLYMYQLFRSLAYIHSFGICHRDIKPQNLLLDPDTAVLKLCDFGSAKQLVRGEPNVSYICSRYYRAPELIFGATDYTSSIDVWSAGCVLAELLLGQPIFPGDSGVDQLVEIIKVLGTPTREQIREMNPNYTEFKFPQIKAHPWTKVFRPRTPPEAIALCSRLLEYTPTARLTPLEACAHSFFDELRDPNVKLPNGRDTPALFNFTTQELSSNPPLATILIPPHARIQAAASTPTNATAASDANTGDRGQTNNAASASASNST
Sequence of UniProt P31152 (whole entry, looked up): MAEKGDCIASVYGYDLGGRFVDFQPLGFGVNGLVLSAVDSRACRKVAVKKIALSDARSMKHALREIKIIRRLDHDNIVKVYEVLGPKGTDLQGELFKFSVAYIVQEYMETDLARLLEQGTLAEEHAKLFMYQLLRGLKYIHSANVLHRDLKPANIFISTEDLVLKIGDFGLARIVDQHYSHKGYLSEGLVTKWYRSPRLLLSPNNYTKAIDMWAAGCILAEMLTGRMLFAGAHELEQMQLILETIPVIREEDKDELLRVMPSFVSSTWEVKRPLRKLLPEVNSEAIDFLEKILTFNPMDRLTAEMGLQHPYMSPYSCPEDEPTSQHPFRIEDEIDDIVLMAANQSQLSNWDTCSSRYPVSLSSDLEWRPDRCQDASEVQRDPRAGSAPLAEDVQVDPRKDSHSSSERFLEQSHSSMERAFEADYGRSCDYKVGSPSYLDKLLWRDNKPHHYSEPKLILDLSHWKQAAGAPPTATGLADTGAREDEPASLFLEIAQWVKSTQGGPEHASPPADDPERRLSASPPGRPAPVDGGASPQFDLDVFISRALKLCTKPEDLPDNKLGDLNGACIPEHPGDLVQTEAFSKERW

Series 1
Target: ABI1, truncated, D143A, DHFR fusion (Arabidopsis thaliana)
Technique: DHFR PCA, deep sequencing
Matrix: yeast
Setting: methotrexate growth selection, single substitutions
Together with: (+)-ABA 710 µM
Reference: wild-type fitted maximum
Reading: higher = stronger binding
Measurement: relative binding score
Starting sequence: PYL1, truncated, DHFR fusion (Arabidopsis thaliana); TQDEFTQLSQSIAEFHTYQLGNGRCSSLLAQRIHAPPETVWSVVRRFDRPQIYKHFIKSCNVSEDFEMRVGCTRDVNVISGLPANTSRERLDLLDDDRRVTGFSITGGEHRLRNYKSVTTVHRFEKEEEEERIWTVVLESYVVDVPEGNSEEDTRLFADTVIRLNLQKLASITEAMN
S104W: 15.9%
F66E: 98.1%
N77V: 103%
R113I: 101%
I52P: 61.3%
F5P: 101%
N165A: 37.5%
R74I: -20.9%

Series 2
SMILES: CC1=C(C#N)[C@@H](c2ccc3[nH]nc(C)c3c2)C(C#N)=C(c2ccc(Cl)cc2)N1
Effect on: cell-free assay
Technique: competition with immobilised ligand
Concentration: 1 µM
Measurement: remaining binding
MAPK4 (Homo sapiens, UniProt P31152): 89.6%
MATK (Homo sapiens, UniProt P42679): 100%
BRAF (Homo sapiens, UniProt P15056, V600E): 100%
MAPK3 (Homo sapiens, UniProt P27361): 100%

Series 3
Target: Cellular tumor antigen p53, full length (TP53, Homo sapiens, UniProt P04637, residues 1-393)
Technique: protein-binding microarray
Form: hairpin DNA
Matrix: in vitro
Concentration: not given
Setting: whole hairpin DNA, median over replicate spots
Reference: not given
Reading: higher = stronger binding
Measurement: median fluorescence
CCACAGGTGGTGGCATGCCTTCCTAGGCATGCCACCACCTGTGGACACTC: 7850 a.u.
CGGACGTGCCCGGGCATGTCTCCTGACATGCCCGGGCACGTCCGACACTC (5mC at 5 39): 17900 a.u.
CGGACATGCCCGGCCATGTCTCCTGACATGGCCGGGCATGTCCGACACTC (5mC at 14): 10200 a.u.
CGGACATGCCCGGGCATGTCTCCTGACATGCCCGGGCATGTCCGACACTC (5mC at 11): 21300 a.u.
CCACACGTGGTGGCATGCCTTCCTAGGCATGCCACCACGTGTGGACACTC (5mC at 38): 7430 a.u.
CCACTCGTGGTGGCATGCCTTCCTAGGCATGCCACCACGAGTGGACACTC: 6680 a.u.
CCACACGTGGGGGCATGCCTTCCTAGGCATGCCCCCACGTGTGGACACTC: 9900 a.u.
CCACACGTGGCGGCATGCCTTCCTAGGCATGCCGCCACGTGTGGACACTC: 7510 a.u.

Series 4
Target: UBE2R2 UBC core domain (UniProt Q712K3)
Technique: yeast two-hybrid
Matrix: yeast
Setting: mostly zero background
Reference: not given
Reading: higher = stronger interaction
Measurement: lacZ reporter activity
B1: TRIM63 RING domain (UniProt Q969Q1); chain PMENLEKQLICPICLEMFTKPVVILPCQHNLCRKCANDIFQAANPYWTSRGSSVSMSGGRFRCPTCRHEVIMDRHGV
B2: ARK2C RING domain (UniProt Q6ZSG1); chain EGEESDTDEKCTICLSMLEDGEDVRRLPCMHLFHQLCVDQWLAMSKKCPICRVDIETQLGAD
B3: IRF2BPL RING domain (UniProt Q9H1B7); chain SPMANSGPLCCTICHERLEDTHFVQCPSVPSHKFCFPCSRESIKAQGATGEVYCPSGEKCPLVGSNVP
Target sequence (chain): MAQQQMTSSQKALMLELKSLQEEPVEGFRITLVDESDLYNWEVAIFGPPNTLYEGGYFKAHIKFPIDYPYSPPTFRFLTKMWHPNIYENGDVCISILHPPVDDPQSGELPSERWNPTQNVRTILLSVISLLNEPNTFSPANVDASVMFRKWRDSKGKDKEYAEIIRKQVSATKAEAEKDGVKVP
YWAMDSTFELCKICAESNKDVKIEPCGHLLCSCCLAAWQHSDSQTCPFCRCEIKGWEAVS (CBLC RING domain (UniProt Q9ULV8)): 0
VTLSLTLPITCHICLGKVRQPVICINNHVFCSICIDLWLKNNSQCPACRVPITPENPCK (OBI1 RING domain (UniProt Q5W0B1)): 0
DDENSDNSNECVVCLSDLRDTLILPCRHLCLCTSCADTLRYQANNCPICRLPFRALLQIR (MGRN1 RING domain (UniProt O60291)): 0
B1 (TRIM63 RING domain): 0
B2 (ARK2C RING domain): 0
RLTMMWEEVTCPICLDPFVEPVSIECGHSFCQECISQVGKGGGSVCPVCRQRFLLKNLRP (TRIM21 RING domain (UniProt P19474)): 0
B3 (IRF2BPL RING domain): 0
QHHELTSLFECPVCFDYVLPPILQCQAGHLVCNQCRQKLSCCPTCRGALTPSIRNL (SIAH2 RING domain (UniProt O43255)): 0

Series 5
SMILES: O=S(=O)(NCCNC/C=C/c1ccc(Br)cc1)c1cccc2cnccc12
Effect on: enzyme activity
Mode: inhibitor
Concentration: 0.5 µM
Reference: control
Measurement: remaining activity
CSNK1G2 (Homo sapiens, UniProt P78368): 86.8%
TAOK2 (Homo sapiens, UniProt Q9UL54): 90.7%
CSNK1G3 (Homo sapiens, UniProt Q9Y6M4): 93.3%
LCK (Homo sapiens, UniProt P06239): 103%
TBK1 (Homo sapiens, UniProt Q9UHD2): 101%
WEE1 (Homo sapiens, UniProt P30291): 84.6%
FGFR1 (Homo sapiens, UniProt P11362): 87.6%
NEK1 (Homo sapiens, UniProt Q96PY6): 94.4%
JAK3 (Homo sapiens, UniProt P52333): 122%
GSK3B (Homo sapiens, UniProt P49841): 83.5%
EPHA3 (Homo sapiens, UniProt P29320): 109%
MST1R (Homo sapiens, UniProt Q04912): 97.4%
ULK2 (Homo sapiens, UniProt Q8IYT8): 98.9%
RPS6KA2 (Homo sapiens, UniProt Q15349): 79.2%
MAPK3 (Homo sapiens, UniProt P27361): 84.8%
NEK6 (Homo sapiens, UniProt Q9HC98): 100%
ARAF (Homo sapiens, UniProt P10398): 95.8%
MAP2K2 (Homo sapiens, UniProt P36507): 103%
TEK (Homo sapiens, UniProt Q02763): 99.8%
MAP3K14 (Homo sapiens, UniProt Q99558): 83.6%
FGFR3 (Homo sapiens, UniProt P22607): 91.3%
MAP3K5 (Homo sapiens, UniProt Q99683): 93.2%
MERTK (Homo sapiens, UniProt Q12866): 79.8%

Further values, each from its own experiment
Target: SMN1, full length (human, UniProt Q16637, residues 1-294)
Sequence of UniProt Q16637 (whole entry, looked up): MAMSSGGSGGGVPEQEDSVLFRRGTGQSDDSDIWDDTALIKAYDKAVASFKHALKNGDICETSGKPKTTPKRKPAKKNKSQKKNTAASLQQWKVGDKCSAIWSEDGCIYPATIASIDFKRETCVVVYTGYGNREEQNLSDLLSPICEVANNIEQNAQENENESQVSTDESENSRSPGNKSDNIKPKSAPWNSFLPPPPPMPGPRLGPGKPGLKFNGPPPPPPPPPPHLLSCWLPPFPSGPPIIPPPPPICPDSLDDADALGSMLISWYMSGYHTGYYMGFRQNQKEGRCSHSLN
Technique: nitrocellulose filter binding
Form: RNA
Matrix: in vitro
Concentration: 100 nM
Setting: whole RNA, constant flanks, single concentration, ends assumed
Reference: round 9 selected pool
Reading: higher = stronger binding
GGGCUCACCACGCACGUGCUUUGCUUGACCGGGAAUCGGGCCUCACCACGGCAAGCU
relative RNA binding: 73 % of pool

GGGCUCACCACGCACGGGGGCGAUUUGUGAGGUUUGCGUGCCUCACCACGGCAAGCU
relative RNA binding: 19 % of pool
